Published values gathered from unrelated publications.
Each numbered part is a random draw from the data of one study; scales do not carry over between parts.

Study 1
Target: TAR DNA-binding protein 43, full length, His tag (TARDBP, Homo sapiens, UniProt Q13148, residues 1-414)
Method: RNA Bind-n-Seq
Molecule type: RNA
Medium: in vitro
Tested at: 20 nM
Notes: 6-mer, flanks averaged, single round
Added: 150 mM LiCl
Relative to: input library
Reading: higher = stronger binding
Quantity: 6-mer enrichment (R)
CCCUGC: 1.05
UCGAGG: 0.957
GGUAGC: 1.03
GAAUUG: 0.992

Study 2
Target: PABPC1L2, full length, GST fusion (mouse, UniProt A0ABA7IW68)
Method: RNAcompete
Molecule type: RNA
Medium: in vitro
Tested at: 20 nM
Notes: 7-mer, probes averaged, single round
Relative to: mean of 7-mers
Reading: higher = stronger binding
Quantity: 7-mer Z-score
Target sequence (chain): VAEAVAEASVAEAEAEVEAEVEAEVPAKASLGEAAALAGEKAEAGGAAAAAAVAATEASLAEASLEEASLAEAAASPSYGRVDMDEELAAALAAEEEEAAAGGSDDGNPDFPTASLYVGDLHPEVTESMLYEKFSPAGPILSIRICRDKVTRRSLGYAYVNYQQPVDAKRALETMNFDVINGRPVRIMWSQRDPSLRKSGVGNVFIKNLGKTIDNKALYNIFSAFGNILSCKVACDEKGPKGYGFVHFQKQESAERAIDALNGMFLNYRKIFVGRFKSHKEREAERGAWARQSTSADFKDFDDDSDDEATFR
CGCCAGU: -0.238
ACUACAA: 0.309
UCGCAUC: -0.387
CCAGCCU: -0.472

Study 3
Target: Interferon regulatory factor 7, full length, phosphomimetic (IRF7, Homo sapiens, UniProt Q92985, residues 1-503, S471D/S472D/S475D/S476D/S477D/S483D/S484D/S487D)
Method: protein-binding microarray
Molecule type: double-stranded DNA, one strand shown
Medium: in vitro
Tested at: 2200 nM top
Notes: 60-bp whole probe
Added: salmon DNA 0.4 mg/ml
Relative to: random background probes
Reading: higher = stronger binding
Quantity: fitted relative affinity
Shared flanks, not repeated: GCCTAGCAC … GTGCTAGGTCTTGATTCGCTTGACGCTGCTG
Construct (chain): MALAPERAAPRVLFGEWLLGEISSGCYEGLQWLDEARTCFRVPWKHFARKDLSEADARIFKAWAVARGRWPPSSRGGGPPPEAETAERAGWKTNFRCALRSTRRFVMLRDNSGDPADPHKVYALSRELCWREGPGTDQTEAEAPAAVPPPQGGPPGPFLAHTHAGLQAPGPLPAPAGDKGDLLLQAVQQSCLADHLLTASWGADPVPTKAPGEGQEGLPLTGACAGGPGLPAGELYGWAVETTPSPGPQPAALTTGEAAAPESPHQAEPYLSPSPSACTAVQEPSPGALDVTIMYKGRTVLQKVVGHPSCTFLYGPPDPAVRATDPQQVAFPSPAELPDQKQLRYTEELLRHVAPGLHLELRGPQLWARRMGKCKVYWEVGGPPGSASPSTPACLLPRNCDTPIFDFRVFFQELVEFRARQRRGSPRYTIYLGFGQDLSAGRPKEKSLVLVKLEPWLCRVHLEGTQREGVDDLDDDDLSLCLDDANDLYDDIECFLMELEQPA
TTAGGTCTCTTTATCCTTTA: 0.697 z-score
GACGGTTTCCTATTGCTGAC: 3.44 z-score
TTAGGTATCTGTTTCGGTTA: 4.71 z-score
TTAGAAATCAGACTGGATTA: -0.784 z-score
GACGGTTTCCTTTTGCTGAC: 5.95 z-score
GACGGTTTCGGACCGGGGAC: 2.38 z-score

Other studies, line by line
PhoQ, residues 284 288 289 292 302 303 SNGLAW  fold induction (PhoP, residues 12 14 15 18 19 AWHSL (Escherichia coli, UniProt P23836); Sort-seq, item: YFP reporter; E. coli; PhoQ-PhoP variant library, added: 10 µM Mg2+; relative to: high Mg2+ state, higher = stronger signaling): 4.91

Excerpt of the above (study 1):
GGUAGC: 1.03
UCGAGG: 0.957
